Published values pooled from the literature.
Numbered parts are unrelated; each lists some results of a single study.

Series 1 — technique: protein-binding microarray; molecule type: double-stranded DNA, one strand shown; sample: in vitro; concentration: 2200 nM top; setting: 60-bp whole probe; with: salmon DNA 0.4 mg/ml; baseline: random background probes; reading: higher = stronger binding; endpoint: fitted relative affinity; all sequences stand within: GCCTAGCAC … GTCTTGATTCGCTTGACGCTGCTG
Target: Interferon regulatory factor 7, full length, phosphomimetic (IRF7, Homo sapiens, UniProt Q92985, residues 1-503, S471D/S472D/S475D/S476D/S477D/S483D/S484D/S487D)
Chain of UniProt Q92985 (whole entry, unmodified, looked up): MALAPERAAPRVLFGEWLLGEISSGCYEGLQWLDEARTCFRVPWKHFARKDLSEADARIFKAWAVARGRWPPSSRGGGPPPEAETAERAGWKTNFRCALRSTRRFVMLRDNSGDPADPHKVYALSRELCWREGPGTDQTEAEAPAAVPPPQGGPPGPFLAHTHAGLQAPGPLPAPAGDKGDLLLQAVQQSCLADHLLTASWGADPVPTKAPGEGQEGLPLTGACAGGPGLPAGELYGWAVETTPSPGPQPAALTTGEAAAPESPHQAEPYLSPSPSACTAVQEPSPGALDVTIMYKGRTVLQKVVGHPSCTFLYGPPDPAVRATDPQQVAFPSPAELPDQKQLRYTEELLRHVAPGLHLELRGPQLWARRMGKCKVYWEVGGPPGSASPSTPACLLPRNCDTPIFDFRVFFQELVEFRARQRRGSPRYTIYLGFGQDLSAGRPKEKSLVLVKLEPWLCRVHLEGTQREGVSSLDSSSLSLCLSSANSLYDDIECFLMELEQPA
TTAGAACTGCTTTTCCTTTAGTGCTAG: 1.53 z-score
GACCGTATCGGTTTCGGGACGTGCTAG: 4.1 z-score
GACGGTATCAGTATCGAGACGTGCTAG: 0.242 z-score
GACGGACTGGACTTCCGGGACGTGCTA: -0.461 z-score
GACGGAATGGACTTTCGGGACGTGCTA: 2.39 z-score
GACGAACTGACTCTCGAGACGTGCTAG: 0.146 z-score
TTAGGACTGGGGACTGGATTAGTGCTA: -0.712 z-score
CCCTGAGGAATCCTGCAGCCGTGCTAG: -1.01 z-score
TTAGGACTGCTACGGCTTTAGTGCTAG: -0.374 z-score
TCATATACACTTATGACACTGTGCTAG: 1.08 z-score
GGCGGACTGGGGACTGGGGACGTGCTA: -1.15 z-score
GACGATCTCGGTATCGGGACGTGCTAG: 0.101 z-score
TTAGACATCAGACTGGATTAGTGCTAG: -0.429 z-score
TTAGGTATCGACACTGGGTCAGTGCTA: -0.252 z-score
CTGTACTTGAATTCTGCAAAGTGCTAG: 0.668 z-score
GACTGTTTCGGTTTCGGGACGTGCTAG: 12.4 z-score
GACGCACTGGGTATCGGGACGTGCTAG: -0.191 z-score
TTAGAACTGGGGACTGGCTTAGTGCTA: -0.687 z-score
GACGGTTCCCTTTTCCTGTCGTGCTAG: 3.29 z-score

Series 2 — technique: RNA Bind-n-Seq; molecule type: RNA; sample: in vitro; concentration: 365 nM; baseline: no-protein control; reading: higher = stronger binding; endpoint: RBNS enrichment (R)
Target: RNA binding protein fox-1 homolog 2, RRM domain, GST-SBP tag (RBFOX2, Homo sapiens, UniProt O43251-10, residues 100-194)
Setting: natural RNA segment, single round, ends assumed
Target sequence (chain): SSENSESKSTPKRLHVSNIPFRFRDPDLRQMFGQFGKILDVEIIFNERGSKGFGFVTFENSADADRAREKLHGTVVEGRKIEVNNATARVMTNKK
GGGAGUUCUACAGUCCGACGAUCAAAAUUUUUAAUUUCUAUAGUUAAGAUUUACUGCAUAAUAUAGAAUAUAAAGUUAAGUUAACAUACUAACAUUUCUCCUUUGGAGGAAGUUUUAAUCUACUUCAGGAUGCUGGAAUUCUCGGGUGCCAA: 0.631
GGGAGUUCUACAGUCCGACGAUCAAAUGCAUUUGAUUAUCCUGAUUUACCAGUUGUGAGAGGCAAGAAAUUUGUUGAGUCUGUAUAUAAAACUUGAAAAUUUGUAGAAAAAAUAAGGAAAAUGAUACUGCUGGUGGAAUUCUCGGGUGCCAA: 1.03
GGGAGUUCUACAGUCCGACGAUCUGGACUUAUCAUAUUUUUAUAUAUUUUUAAAUUUCUGUACCUUUAUUGUUAAACACCAAGUUUCACAUACAAGAGGUUUCUUUCAUUGUCAAAUUAAGAUAUGUAUUUGUUGGAAUUCUCGGGUGCCAA: 0.562
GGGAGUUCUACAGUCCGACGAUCUUCAGGGAGAUGGGGGCACUAUGGUUGCCCAAGACCAUAAACCCUCUUGUAGUCAGGCAGUAUAGUGUAGCAGGGCAAUCUGUCUGACACCUAAAUGGACUUGAAAUUGAUGGAAUUCUCGGGUGCCAA: 0.576
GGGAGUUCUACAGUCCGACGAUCCAUCUCCAGGGCCUUGACCUCACUGGACUGUGACUGUCCUCAGGACACCUGCCCCUCCUCACCUAACGGACUGCAGGGCUGAGCAUGUGUCUGAGGUCACACUCUCUGCCUGGAAUUCUCGGGUGCCAA: 0.433
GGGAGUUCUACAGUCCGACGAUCAUUUAUUCCCUAAUGUACCUGAACACUAGUACCAUAGAACUGAACCACCAUCUGUAUCAGCGCAUGGGGAGUGUGCAUUCUGAGGUCUAACCCGGGGUGCCAGGAACACAUGGAAUUCUCGGGUGCCAA: 0.542
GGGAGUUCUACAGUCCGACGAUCCAGCCUGCUGGCUCCAGAAAAAAGGUCUUGGUAGGCAUUAGUCUAUCCUAGGUGCCCCCAGUGCACUGUCCUUGUCUGUCUGAAGCACCCAUCUCUACCUUCCCUGGCCAUGGAAUUCUCGGGUGCCAA: 0.35
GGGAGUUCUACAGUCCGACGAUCGACCUGGACCUGGACCUGGACCUACAGCGGGGACUUAAAUGCCUUCUUAUCCAAUAUAUCUUCUCAGAUGGGAUGACUGCGGGUCAGUGUACAGGAAGAGGCAGGCACUGUGGAAUUCUCGGGUGCCAA: 0.317

Series 3 — technique: protein binding microarray; molecule type: double-stranded DNA, one strand shown; sample: in vitro; concentration: not given; baseline: not given; reading: higher = stronger binding; endpoint: E-score
Target: Histone acetyltransferase KAT6A, winged helix 1, GST fusion (KAT6A, Homo sapiens, UniProt Q92794, residues 1-85)
Setting: 8-mer, flanks averaged, mean of 2 arrays, mostly near background
Target sequence (chain): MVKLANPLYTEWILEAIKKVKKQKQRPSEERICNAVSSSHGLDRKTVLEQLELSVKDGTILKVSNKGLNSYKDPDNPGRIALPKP
CATAAGGG: -0.0314
ACACGTGC: 0.0519
GTTAGTTA: 0.0772
CTCTCCAC: -0.27
CCACCGGC: 0.334
AGGTATAG: -0.146
ACTGCAGG: -0.179
TAAATCCA: -0.154
CAACGCCC: 0.158
CGTTTCTA: 0.0147
ATTCTCTA: -0.106
GAGGTGAC: -0.0309
CTTTTCTC: -0.147
CGCTTAAG: 0.216
ACCTATAA: -0.103
CCCGTGCG: 0.382

Series 4 — technique: RNA Bind-n-Seq; molecule type: RNA; sample: in vitro; concentration: 200 nM; setting: whole 134-nt RNA, ends assumed; with: 150 mM LiCl; baseline: input library; reading: higher = stronger binding; endpoint: log2 enrichment; library: 7-deaza-guanosine replaces G
Target: Ras GTPase-activating protein-binding protein 1, full length (G3BP1, Homo sapiens, UniProt Q13283)
Chain of UniProt Q13283 (whole entry, looked up): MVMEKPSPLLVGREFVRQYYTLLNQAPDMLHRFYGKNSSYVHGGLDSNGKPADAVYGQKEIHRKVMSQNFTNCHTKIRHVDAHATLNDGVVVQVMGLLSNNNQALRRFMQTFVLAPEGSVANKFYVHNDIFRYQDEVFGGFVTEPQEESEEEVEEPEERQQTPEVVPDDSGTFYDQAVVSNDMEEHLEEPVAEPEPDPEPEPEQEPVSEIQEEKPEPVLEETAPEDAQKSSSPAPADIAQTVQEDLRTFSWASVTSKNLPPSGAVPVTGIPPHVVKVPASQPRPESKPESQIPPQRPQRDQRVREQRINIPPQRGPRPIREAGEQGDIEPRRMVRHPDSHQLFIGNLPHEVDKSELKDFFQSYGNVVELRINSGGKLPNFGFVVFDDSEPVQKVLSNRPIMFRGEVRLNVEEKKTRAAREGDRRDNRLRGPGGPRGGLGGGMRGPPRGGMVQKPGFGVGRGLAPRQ
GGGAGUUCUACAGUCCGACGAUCCUCAAGUCCUGUGCUACACAUCGUAUGUACCGAAUCGGAAGGGAAGGAAGGGGAAAGUAUUAUGUUACGCCGUUCGGAUCUGCACUUCCAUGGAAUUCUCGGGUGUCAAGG: 0.00334
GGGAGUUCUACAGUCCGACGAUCCACAGACAACACGCACCCACACAGACACAGAGGGAAGGGCUUGGGAUGGGGACAGGGUGCACAGCAGGGCGGGGUAGGACCCCAGCCCCUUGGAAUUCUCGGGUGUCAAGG: -0.999
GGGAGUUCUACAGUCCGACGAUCCACAGACAACACGCACCCACACAGACACAGAGGGAAGGGGUUGGGAUGGGGACAGGGUGCACAGCAAAACGGGGUAGGACCCCAGCCCCUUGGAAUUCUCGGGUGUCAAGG: 0.131
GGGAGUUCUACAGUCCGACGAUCUCCUGUGCUACACAUCGUAUGUACCGAAUCGGGGUUUGGGGUUUUUUUGGGGUUUGGGGAAAGUAUUAUGUUACGCCGUUCGGAUCUGCAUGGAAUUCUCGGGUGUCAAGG: 0.309
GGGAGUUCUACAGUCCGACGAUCGCAGGAAGUAAAAACAAAUGGAAAUGCUUCGGAUAGUGGCAGGGGUGGGGGUUGCUAAGGAAAGGGUGGGAUGGGAGAGGGUAAAGAGUUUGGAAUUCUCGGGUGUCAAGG: 0.357
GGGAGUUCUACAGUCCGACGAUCAAGUCCUGUGCUACACAUCGUAUGUACCGAAUCGGUUUUUGGAAAAAAAGGUUUGGAAAGUAUUAUGUUACGCCGUUCGGAUCUGCACUUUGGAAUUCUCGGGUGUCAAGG: -3.42
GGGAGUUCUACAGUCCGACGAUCCACAGACAACACGCACCCACACAGACACAGAGGGAAGGGGUUGGGAUGGGGACAGGGUGCACAGCAGGGCGGGGUAGGACCCCAGCCCCAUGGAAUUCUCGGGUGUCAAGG: -0.143
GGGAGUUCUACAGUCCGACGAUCGUCCUGUGCUACACAUCGUAUGUACCGAAUCGGCCCCCCGGCCCCCCGGGCCCCCCGGAAAGUAUUAUGUUACGCCGUUCGGAUCUGCACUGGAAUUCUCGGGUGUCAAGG: -0.197
